Assay results of several laboratories.
Each line is one published result; not all experiments were run side by side. Numbers after ± are the reported error.
Organism: Plasmodium falciparum

CC1=C(C)/C(=C/c2[nH]c(Cc3ccc(Cl)cc3)cc2Cc2ccc(Cl)cc2)N=C1c1ccc[nH]1
IC50 (parasite growth, SYBR Green fluorescence; Tm90-C2B (atovaquone-resistant), asexual blood stage; 72 h): > 2500 nM

COc1cc(C)c(-c2ccc(O)c3c2C[C@@H](C)N[C@@H]3C)c2cccc(O)c12 (single isomer, unassigned)
IC50 (asexual parasite growth, SYBR Green I; clinical isolate SB_04, Malawi): 13.8 ± 0.35 nM

O=C(CC1NCCCC1O)Cn1cnc2cc(Br)c(Cl)cc2c1=O (stereo not shown)
IC50 (parasite growth; conditional knockdown control line; 120 h, added: 50 nM anhydrotetracycline): 0.5 nM

CCN(CC)CCCC(C)Nc1ccnc2cc(Cl)ccc12 (stereo not shown)
IC50 (asexual parasite proliferation, SYBR Green I fluorescence; K1): 157 ± 31 nM

COc1nc2ccc(Br)cc2cc1[C@@H](c1ccccc1)[C@@](O)(CCN(C)C)c1cccc2ccccc12
IC50 (parasite growth, stage-specific treatment; 12 h, early to late schizont stage): 1540 ± 120 nM

CCC1=C(CC)/C(=C/c2cc(Cc3ccc(OC(F)(F)F)cc3)c(C)[nH]2)N=C1c1ccc[nH]1
IC50 (parasite growth, SYBR Green fluorescence; Dd2 (multidrug-resistant), asexual blood stage; 72 h): 269 nM

c1ccc(Oc2ccc(-c3cc(C4CCOCC4)[nH]n3)cc2)cc1
IC50 (parasite growth, inhibitor, SYBR Green I; 3D7): > 100000 nM

COC1=C(OC)/C(=C/c2[nH]c(Cc3ccc(OC(F)(F)F)cc3)cc2Cc2ccc(OC(F)(F)F)cc2)N=C1c1ccc[nH]1
IC50 (parasite growth, SYBR Green fluorescence; Tm90-C2B (atovaquone-resistant), asexual blood stage; 72 h): 103 nM

COc1cc(CO)c(-c2ccc3c(c2O)[C@@H](C)N[C@H](C)C3)c2cccc(O)c12
IC50 (asexual parasite proliferation, SYBR Green I fluorescence; HB3): 11 ± 1.9 nM

NC(N)=Nc1ccc(-c2ccc(-c3ccc(N=C(N)N)c(Cl)c3)o2)cc1Cl
IC50 (parasite growth, stage-specific treatment; 12 h, early to late trophozoite stage): 700 ± 30 nM
